Assay results of several laboratories.
Compare with care: the assays were run in different laboratories. “And” joins repeats or separate records; there may be more than shown. ± gives the spread as reported.

| SMILES | assay | system | conditions | plasma concentration |
| --- | --- | --- | --- | --- |
| O=C1CCC(N2Cc3cc(C(=O)O)c(F)cc3C2=O)C(=O)N1 (stereo not shown) |  | CD-1 mouse, male | oral, 10 mg/kg parent drug, 0.17 h | 55.2 ± 16.6 ng/mL |
| CC1(C)CC[C@@]2(CO)C(=C3C=C[C@@H]4[C@@]5(C)CC[C@H](O)[C@@](C)(CO)[C@@H]5CC[C@@]4(C)[C@]3(C)C[C@@H]2O)C1 | UHPLC-MS/MS | mouse, plasma | oral, 50 mg/kg of saikosaponin a, 10 h | 34.2 ng/mL |
| CC#CC(=O)N1CCC[C@H]1c1nc(-c2ccc(C(=O)Nc3ccccn3)cc2)c2c(N)nccn12 |  | mouse, TMD8 tumour-bearing, plasma | 30 mg/kg twice daily, 8 h | 16.1 ng/mL |
| C=CC(=O)N1CCCC(n2c(=O)c3ncccc3n(Cc3ccc(Oc4ccccc4)cc3)c2=O)C1 (stereo not shown) |  | BALB/c mouse, male, plasma | intraperitoneal, 200 mg/kg, 6 h | 135 ng/mL |
| C=CC(=O)N1CCC[C@@H](c2ccc(C(N)=O)c3[nH]ccc23)C1 |  | mouse, TMD8 tumour-bearing, plasma | 30 mg/kg twice daily, 8 h | 6.8 ng/mL |
| O=C1C2CC3CC1CC(C(=O)N1CCN(c4ccc([N+](=O)[O-])c5ncccc45)CC1)(C3)C2 |  | ICR mouse, male | oral, 5 mg/kg, 0.5 h | 16.4 ng/mL |
| Cc1ncsc1-c1ccc(CNC(=O)[C@@H]2C[C@@H](O)CN2C(=O)[C@@H](NC(=O)COCC(C)(COCCOCCOCCNC(=O)C[C@@H]2N=C(c3ccc(Cl)cc3)c3c(sc(C)c3C)-n3c(C)nnc32)COCCOCCOCCNC(=O)C[C@@H]2N=C(c3ccc(Cl)cc3)c3c(sc(C)c3C)-n3c(C)nnc32)C(C)(C)C)cc1 |  | C57BL/6 mouse, male, plasma | intravenous, 5 mg/kg, 30 min | 6890 ng/mL |
| CC(C)n1ncc2c(C(=O)NC[C@@H](C)N)cc(C3CC3)nc21 |  | mouse BALB/c female, plasma | intraperitoneal, 30 mg/kg, 4 h | 927 ng/mL |
| Cc1cc(C(=O)N[C@@H](CC(=O)NC(C)(C)C)C(=O)NCCNC(=O)c2cc(-c3ccccc3)ccn2)no1 |  | mouse, plasma | oral, 1 mg/kg | < 2 ng/mL |
| [2H]C([2H])(N)C([2H])([2H])NC(=O)c1cc(C2CC2)nc2c1cnn2C(C)C |  | mouse BALB/c female, plasma | intraperitoneal, 50 mg/kg, 12 h | 89.3 ng/mL and 70.4 ng/mL and 51.5 ng/mL and 45.1 ng/mL |
| CCC(=O)N(C)c1ccc(Cl)c(Cl)c1 | LC-MS/MS | mouse C57BL/6 female, plasma | oral, 10 mg/kg, 0.5 h | 219 ng/mL and 215 ng/mL |
| Cc1ccc(OCC(=O)N(Cc2cccs2)c2ccn[nH]2)cc1 |  | mouse, CD-1, male, plasma | oral, 30 mg/kg, 4 h | 7 nM |
| Cc1nn(-c2nc3c(F)cc(F)cc3s2)c(O)c1C(c1ccc(C(F)(F)F)cc1)c1c(C)nn(-c2nc3c(F)cc(F)cc3s2)c1O |  | ICR mouse | oral, 50 mg/kg, 0.50 h | 94900 ng/mL and 93300 ng/mL and 55300 ng/mL |

Excerpt of the above:
| SMILES | assay | system | conditions | plasma concentration |
| --- | --- | --- | --- | --- |
| Cc1cc(C(=O)N[C@@H](CC(=O)NC(C)(C)C)C(=O)NCCNC(=O)c2cc(-c3ccccc3)ccn2)no1 |  | mouse, plasma | oral, 1 mg/kg | < 2 ng/mL |
| [2H]C([2H])(N)C([2H])([2H])NC(=O)c1cc(C2CC2)nc2c1cnn2C(C)C |  | mouse BALB/c female, plasma | intraperitoneal, 50 mg/kg, 12 h | 89.3 ng/mL and 70.4 ng/mL and 51.5 ng/mL and 45.1 ng/mL |
